# Assay results of several laboratories.
# Parts stem from different laboratories: compare values within a part only.

# Study 1
# Target: Protein C-ets-1 (ETS1, Homo sapiens, UniProt P14921, residues 1-441, full length assumed)
# Method: protein-binding microarray
# Molecule type: double-stranded DNA, one strand shown
# Sample: in vitro
# Concentration: not given
# Setting: k-mer, scored over probes, only values ≥0.25
# Direction: higher = stronger binding
# Residues (chain): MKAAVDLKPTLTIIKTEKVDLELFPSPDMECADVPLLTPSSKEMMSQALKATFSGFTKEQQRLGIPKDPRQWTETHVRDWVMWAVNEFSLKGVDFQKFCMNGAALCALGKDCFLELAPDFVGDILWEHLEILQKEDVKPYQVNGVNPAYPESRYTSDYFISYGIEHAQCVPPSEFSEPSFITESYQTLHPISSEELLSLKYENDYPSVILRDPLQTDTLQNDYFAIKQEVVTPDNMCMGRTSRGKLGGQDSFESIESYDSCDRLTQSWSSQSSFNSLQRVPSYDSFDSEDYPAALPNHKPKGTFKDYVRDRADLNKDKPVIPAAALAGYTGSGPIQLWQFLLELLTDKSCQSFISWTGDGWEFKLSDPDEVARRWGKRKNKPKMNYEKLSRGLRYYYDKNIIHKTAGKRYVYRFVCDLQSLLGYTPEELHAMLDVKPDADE
Sequence,E-score
CATTTCCA,0.284
AATCCGGC,0.344
TACAGGAA,0.454
AGGAAGAG,0.38
ATTCCGCC,0.322
AGTTCCTG,0.419
CCGGTACC,0.392
GACTTTCC,0.251
ATCTTCCG,0.422
GGAAGGAC,0.374
AGCGGGAA,0.257
TACGGATA,0.289

# Study 2
# Target: Sal-like protein 4, full length isoform A (SALL4, Homo sapiens, UniProt Q9UJQ4, residues 1-1053)
# UniProt Q9UJQ4, sequence (whole entry, looked up): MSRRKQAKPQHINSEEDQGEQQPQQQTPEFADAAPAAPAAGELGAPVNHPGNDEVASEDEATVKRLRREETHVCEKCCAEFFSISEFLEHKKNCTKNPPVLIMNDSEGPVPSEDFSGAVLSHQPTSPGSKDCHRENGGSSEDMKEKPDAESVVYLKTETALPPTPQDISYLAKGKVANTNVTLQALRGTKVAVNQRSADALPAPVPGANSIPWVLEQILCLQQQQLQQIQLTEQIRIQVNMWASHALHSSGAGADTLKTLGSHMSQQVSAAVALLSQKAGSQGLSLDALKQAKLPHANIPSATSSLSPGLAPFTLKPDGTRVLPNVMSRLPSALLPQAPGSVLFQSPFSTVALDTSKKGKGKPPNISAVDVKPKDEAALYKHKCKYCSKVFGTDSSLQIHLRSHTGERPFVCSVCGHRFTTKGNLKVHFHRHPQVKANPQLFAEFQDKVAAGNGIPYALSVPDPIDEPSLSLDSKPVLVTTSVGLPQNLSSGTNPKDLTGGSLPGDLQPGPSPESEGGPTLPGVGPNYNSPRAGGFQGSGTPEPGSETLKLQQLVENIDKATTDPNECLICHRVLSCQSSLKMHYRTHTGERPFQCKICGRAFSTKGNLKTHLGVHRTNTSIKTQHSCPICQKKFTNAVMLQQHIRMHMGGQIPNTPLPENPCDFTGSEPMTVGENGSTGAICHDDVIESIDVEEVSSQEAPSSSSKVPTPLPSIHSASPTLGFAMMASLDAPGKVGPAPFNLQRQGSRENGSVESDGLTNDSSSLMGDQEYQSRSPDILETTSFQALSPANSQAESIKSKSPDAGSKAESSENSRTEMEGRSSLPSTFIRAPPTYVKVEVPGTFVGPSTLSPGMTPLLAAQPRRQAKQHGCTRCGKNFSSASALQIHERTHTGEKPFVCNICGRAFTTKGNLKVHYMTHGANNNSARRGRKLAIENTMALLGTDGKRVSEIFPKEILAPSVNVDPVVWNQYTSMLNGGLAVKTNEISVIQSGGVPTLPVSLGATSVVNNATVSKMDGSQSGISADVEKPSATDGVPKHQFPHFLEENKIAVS
# Method: universal PBM
# Molecule type: double-stranded DNA, one strand shown
# Sample: in vitro
# Concentration: 600 nM
# Setting: 8-mer, flanks averaged, mean of replicates
# Direction: higher = stronger binding
Sequence,E-score
GACAGTCA,-0.085
AGCGCTTG,-0.172
TATGCAAA,0.202
CGACGCAA,-0.269
CAATCCGC,0.00363
ACCAAGGA,-0.00252
TCCACCCA,-0.128
ACCTAAAA,0.0451
CATGAGCC,-0.104
AATCCAGA,0.265
ACGTTGAA,0.0418
CAGCCAGC,-0.289
AAGCGCTA,0.0897
AAAATCCC,0.0922
ACGGCGGC,-0.377

# Study 3
# Target: Histone acetyltransferase KAT6A, winged helix 1, GST fusion (KAT6A, Homo sapiens, UniProt Q92794, residues 1-85)
# Method: protein binding microarray
# Molecule type: double-stranded DNA, one strand shown
# Sample: in vitro
# Concentration: not given
# Setting: 8-mer, flanks averaged, mean of 2 arrays, mostly near background
# Relative to: not given
# Direction: higher = stronger binding
# Target sequence (chain): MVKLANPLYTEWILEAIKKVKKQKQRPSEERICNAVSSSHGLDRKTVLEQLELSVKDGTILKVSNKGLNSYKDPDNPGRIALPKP
Sequence,E-score
AGCTAGGC,0.0315
CAGCGCTC,0.224
GAGACACA,-0.087
CAATAGCA,-0.145
ATCCTCCA,-0.283
GTATGCAC,-0.119
AGGCGTAG,0.0342
GAGGACCA,-0.147
GACTGAGC,-0.0062
AAGGCATC,-0.201
AGAAAAAT,-0.211
AGAAATGC,-0.0488
CGCACGCA,0.25
AATTCCGG,0.0921
CTCGGAAG,0.00602
CCGGTCGC,0.297
GAATGTCC,-0.0553
AGGAGAGA,-0.0524
GACAGATA,-0.0146
CGACCTGA,-0.137
GTCGCATA,0.193
CCCCAGTC,-0.219
GTATTTCA,-0.0902
CAGGTGTC,-0.0138
GATCTATA,-0.0978

# Further values, each from its own experiment
Molecule,target,test,system,setting,how to read,quantity,value
"PhoQ, residues 284 288 289 292 302 303 NLALSC","PhoP, residues 12 14 15 18 19 VHTVL (Escherichia coli, UniProt P23836)","Sort-seq, item: YFP reporter",E. coli,"PhoQ-PhoP variant library, together with: 10 µM Mg2+","relative to: high Mg2+ state, higher = stronger signaling",fold induction,1.1

# Some of these lines once more (study 3):
Sequence,E-score
GATCTATA,-0.0978
GTCGCATA,0.193
ATCCTCCA,-0.283
AGCTAGGC,0.0315
CAGCGCTC,0.224
GTATGCAC,-0.119
AATTCCGG,0.0921
AAGGCATC,-0.201
